Measurements gathered from unrelated publications.
A part holds a random share of what one study measured.

Series 1
Target: Runt-related transcription factor 1, full length (RUNX1, Homo sapiens, UniProt Q01196-8, residues 1-480)
Method: protein-binding microarray
Form: hairpin DNA
Medium: in vitro
Tested at: not given
Notes: whole hairpin DNA, median over replicate spots
Baseline: not given
Direction: higher = stronger binding
Endpoint: median fluorescence
Strand = GAGGCCTGTCGCGGTTGGCCTCCTGGCCAACCGCGACAGGCCTCACACTC (5mC at 44); value = 2750 a.u.
Strand = CTCAGTTCTGGGGGCTGGACTCCTGTCCAGCCCCCAGAACTGAGACACTC; value = 1850 a.u.
Strand = CTCAGTTCCGTGGGCTGGACTCCTGTCCAGCCCACGGAACTGAGACACTC (5mC at 35); value = 1830 a.u.
Strand = GAGGCCTGTCGCGGTCGGCCTCCTGGCCGACCGCGACAGGCCTCACACTC (5mC at 28); value = 2510 a.u.
Strand = GAGGCCTGTAGTGGTTGGCCTCCTGGCCAACCACTACAGGCCTCACACTC; value = 2020 a.u.
Strand = GAGGCCTGTTGCGGTGGGCCTCCTGGCCCACCGCAACAGGCCTCACACTC (5mC at 29); value = 3160 a.u.
Strand = CTCAGTTCTCGGGGCTGGACTCCTGTCCAGCCCCGAGAACTGAGACACTC; value = 1720 a.u.
Strand = CTCAGTTCTGTGGGCTAGACTCCTGTCTAGCCCACAGAACTGAGACACTC; value = 1980 a.u.
Strand = GAGGCCCAACCGCAACTGCCTCCTGGCAGTTGCGGTTGGGCCTCACACTC; value = 5890 a.u.
Strand = GAGGCCCAACCCGAACAGCCTCCTGGCTGTTCGGGTTGGGCCTCACACTC (5mC at 12); value = 1870 a.u.
Strand = GAGGCCTGTCGCGGTTGGCCTCCTGGCCAACCGCGACAGGCCTCACACTC (5mC at 12); value = 2130 a.u.
Strand = CTCAGTTCTGTGGGATGGACTCCTGTCCATCCCACAGAACTGAGACACTC; value = 1940 a.u.

Series 2
Target: RNA binding protein fox-1 homolog 2, RRM domain, GST-SBP tag (RBFOX2, Homo sapiens, UniProt O43251-10, residues 100-194)
Method: RNA Bind-n-Seq
Form: RNA
Medium: in vitro
Tested at: 365 nM
Notes: natural RNA segment, single round, ends assumed
Baseline: no-protein control
Direction: higher = stronger binding
Endpoint: RBNS enrichment (R)
All sequences stand within: GGGAGUUCUACAGUCCGACGAUC … UGGAAUUCUCGGGUGCCAA
Residues (chain): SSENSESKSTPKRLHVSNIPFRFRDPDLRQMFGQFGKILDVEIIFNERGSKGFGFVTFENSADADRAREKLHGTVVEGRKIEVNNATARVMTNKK
Strand = AGAAAGAAAAAAUAGCAGCUUUCAGUGCUUCACAGUGAAGGGAAAAAAGCCUAGACAAACAUUUUGUCAGAACCUUGCGAAAUGCCAAGGUAUUACCAGUAAAUUGGUUG; value = 0.445
Strand = CUGCCUGCAGGGAGCCCUCAGGGUGCCCUCCAGAGUACAGGGAGAAACUAAAGGCAAUAACAGAAGCUGCUCUCAGAGCCUGACUGUGCACAAAACACUAGUGAAGCCUG; value = 0.184
Strand = AUUAAAUAAAAAAUAUUAAAUAAAACAUGGCAAUAAGUGUCAGACUAUUAGGAAUUGAGAAGGGGGAUCAACUAAAUAAACGAAGAGAGUCUUUCUUAUGCCUUCCUUGC; value = 0.373
Strand = AGCAGAGUGAGGAUUCCUGCCUUUCGUAGAGUUUUGUGUGACUUUUUAAAUUAUUCAUGUGUCCCUUAAAAGUUUCACUACGUGGAGAAAAUUCCAGCACCAAGUGUUGU; value = 1.36
Strand = CAUGGAGUGCCCAUGCAUACUCUGCUGCCGGUCCCCUCACCUGCACUUGAGGGGUCUGGGCAGUCCCUCCUCUCCCCAGUGUCCACAGUCACUGAGCCAGACGGUCGGUU; value = 1.22
Strand = GGUGGCUGUUAACCACCCGCCCCGCCCCCUCCCUGCUCCCAGCUCUCUCUCCUGGAGUCUGAAGCCUGCAGGUCCGGGGAGGAGGUUCGGGAUUCCCUGGUGGGCCUCGA; value = 1.17
Strand = UGGCCGUCUGUUCACAAGCCCAAGGUGCUAGAACUAGCUUAGGAGACAUGCAGGCCACAGGGCUUCUAGGCAGGGAAAGGGCACACACCCUAGGUCAGCGUGCAGAGCAG; value = 0.743
Strand = CUGCCAUUUUCUACUUAAUUUCAAAGCCCAGUUUUAAGUAACUGGACUACACUGUUGACCUACCCAUGUGACAGUUGUUUUGUUAGAUGGAGAUGUUGCGUUACUAUGGA; value = 0.303
Strand = GGGGUAAUUGUCUCUUGGUGGGCCCAGUUAGUGGGCCUUCCUGAGUGUGUGUAUGCGGUCUGUAACUAUUGCCAUAUAAAUAAAAAAUCCUGUUGCACUAGUGUCCUGCC; value = 0.699
Strand = GACUUACCCUUCAUUGAAGAGAAAAAGAAGACAGUCAAAAAAGGUCCAGGUUACAAAGUUCUCCUCAUAGGUGGAAAGGUUUACUGCAGUGUUAUCCUCUAAGUGUGAUA; value = 0.823
Strand = AAAGUACUUUGUUAUAAAGUCUUGAUUUCAUCAUAAUUUGUUACAUUUGUCUAUAUUUCCUACGGUGCAUCUAUAAAGAGUGCACACACCUAUGGGAAACCUAGGUUUCA; value = 0.478
Strand = UGAGACCCUGUCUCAAGGAAAAAUCAAAAGUUCUUUACAGAUGUGUGCGUGCGGGCGUCAGUUUCCAGGAUAGCCGUGCUGCAGUCCAGUUAGGCUGUUCUCCUGAGCUG; value = 0.216

Series 3
Target: Histone acetyltransferase KAT6A, winged helix 2, GST fusion (KAT6A, Homo sapiens, UniProt Q92794, residues 85-181)
Method: protein binding microarray
Form: double-stranded DNA, one strand shown
Medium: in vitro
Tested at: not given
Notes: 8-mer, flanks averaged, mean of 2 arrays, mostly near background
Baseline: not given
Direction: higher = stronger binding
Endpoint: E-score
Construct (chain): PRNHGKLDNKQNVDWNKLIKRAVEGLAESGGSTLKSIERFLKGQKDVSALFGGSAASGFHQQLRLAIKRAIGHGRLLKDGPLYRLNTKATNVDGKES
Strand = AACTGCTT; value = -0.0897
Strand = GGCATACA; value = 0.115
Strand = ATGGGGCA; value = -0.00941
Strand = ATACGCCC; value = -0.00214
Strand = GTGTCTTA; value = -0.105
Strand = ACAATGAC; value = -0.188
Strand = CTGGATAA; value = -0.032
Strand = AACTAGGC; value = 0.013
Strand = ACAAGGAT; value = 0.0755
Strand = CGACGTCG; value = -0.128
Strand = AAGGAAGT; value = -0.018
Strand = AGACTGAC; value = 0.0102
Strand = GGGGCTCA; value = -0.149
Strand = CTGCAGGA; value = 0.146
Strand = GACCTGCC; value = 0.141
Strand = CCAGACAG; value = 0.0392
Strand = CCATCCAC; value = -0.185
Strand = AGCATACA; value = 0.17
Strand = GCGAGAGC; value = 0.209
Strand = CCGTAATC; value = -0.0529
Strand = CCTTCTGA; value = 0.11
Strand = ATATTCAG; value = -0.0511
Strand = TCAAAAGA; value = 0.0635

Series 4
Target: Interferon regulatory factor 7, full length, phosphomimetic (IRF7, Homo sapiens, UniProt Q92985, residues 1-503, S101K/S471D/S472D/S475D/S476D/S477D/S483D/S484D/S487D)
Sequence of UniProt Q92985 (whole entry, unmodified, looked up): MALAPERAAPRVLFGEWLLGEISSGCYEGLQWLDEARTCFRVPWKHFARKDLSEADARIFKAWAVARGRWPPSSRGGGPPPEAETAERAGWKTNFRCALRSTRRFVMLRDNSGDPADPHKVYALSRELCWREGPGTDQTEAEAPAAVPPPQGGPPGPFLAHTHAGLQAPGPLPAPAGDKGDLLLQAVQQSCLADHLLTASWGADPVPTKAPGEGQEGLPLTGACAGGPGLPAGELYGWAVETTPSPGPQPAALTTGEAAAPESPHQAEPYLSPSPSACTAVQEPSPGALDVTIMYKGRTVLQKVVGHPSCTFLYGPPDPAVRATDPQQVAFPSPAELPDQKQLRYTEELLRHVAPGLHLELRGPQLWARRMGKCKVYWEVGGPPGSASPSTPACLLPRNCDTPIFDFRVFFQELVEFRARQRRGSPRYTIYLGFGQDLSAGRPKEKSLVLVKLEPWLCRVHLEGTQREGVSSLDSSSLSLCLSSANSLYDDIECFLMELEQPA
Method: protein-binding microarray
Form: double-stranded DNA, one strand shown
Medium: in vitro
Tested at: 250 nM
Notes: 60-bp whole probe
Added: salmon DNA 0.4 mg/ml
Baseline: random background probes
Direction: higher = stronger binding
Endpoint: log fluorescence
All sequences stand within: GCCTAGCAC … GTCTTGATTCGCTTGACGCTGCTG
Strand = TCAGCTCCCTTTCTCTCTGTGTGCTAG; value = 0.16 z-score
Strand = GACGAGTTCAGTTCCGAGACGTGCTAG; value = 0.418 z-score
Strand = TTAGGTATCCGACTGGGTTAGTGCTAG; value = -0.151 z-score
Strand = TTAGGTTTCGCTATCGGTTAGTGCTAG; value = 8.64 z-score
Strand = TTAGGTTCCGGGTATCGGTTAGTGCTA; value = 2.86 z-score
Strand = GACGGTTTCGGTTTTGGGACGTGCTAG; value = 13.7 z-score
Strand = GTAGAACTGAGACTGGATTAGTGCTAG; value = -0.444 z-score
Strand = GACGGAGTGGGTCTCGGGACGTGCTAG; value = -0.555 z-score
Strand = GACGGTCTGCTTATCCTGACGTGCTAG; value = -0.441 z-score
Strand = AACGGACTGGGGTTTCGGGACGTGCTA; value = 1.14 z-score
Strand = TTAGGTTGCCTTCTCCTTTAGTGCTAG; value = -0.0998 z-score
Strand = TTAGGTCTCCTTATCCTCTAGTGCTAG; value = 0.564 z-score
Strand = TTAGGTTTCGGGTATCGGCTAGTGCTA; value = 6.92 z-score
Strand = TGAGGTTTCGACTATCGGTTAGTGCTA; value = 4.79 z-score
Strand = TCACATATCGGGGTGCGCACTGTGCTA; value = -0.0129 z-score
Strand = ATAGGACTGGGACTGGGTTAGTGCTAG; value = -0.069 z-score
Strand = GACGCTTTCGGACTGGGGACGTGCTAG; value = 0.796 z-score
Strand = AGGGTCTTCAGGTTCTCCCCGTGCTAG; value = -0.167 z-score
Strand = GACGGACTGGGGTATCGGGACGTGCTA; value = -0.415 z-score
Strand = GTAGGTATCGGGACTGGGTTAGTGCTA; value = -0.469 z-score
Strand = GACGGCATCGACTATCGGGACGTGCTA; value = -1 z-score
Strand = TTAGGGATCGACACTGGGTTAGTGCTA; value = -0.558 z-score
Strand = TCACAGCTGTTTTTCTCACTGTGCTAG; value = -0.184 z-score
Strand = TTAGGTTTCCTCCTCCTTTAGTGCTAG; value = 1.04 z-score
Strand = TTAGAACCGGGGTATCGATTAGTGCTA; value = 0.395 z-score

Series 5
Target: Sal-like protein 4, full length isoform A (SALL4, Homo sapiens, UniProt Q9UJQ4, residues 1-1053)
Sequence of UniProt Q9UJQ4 (whole entry, looked up): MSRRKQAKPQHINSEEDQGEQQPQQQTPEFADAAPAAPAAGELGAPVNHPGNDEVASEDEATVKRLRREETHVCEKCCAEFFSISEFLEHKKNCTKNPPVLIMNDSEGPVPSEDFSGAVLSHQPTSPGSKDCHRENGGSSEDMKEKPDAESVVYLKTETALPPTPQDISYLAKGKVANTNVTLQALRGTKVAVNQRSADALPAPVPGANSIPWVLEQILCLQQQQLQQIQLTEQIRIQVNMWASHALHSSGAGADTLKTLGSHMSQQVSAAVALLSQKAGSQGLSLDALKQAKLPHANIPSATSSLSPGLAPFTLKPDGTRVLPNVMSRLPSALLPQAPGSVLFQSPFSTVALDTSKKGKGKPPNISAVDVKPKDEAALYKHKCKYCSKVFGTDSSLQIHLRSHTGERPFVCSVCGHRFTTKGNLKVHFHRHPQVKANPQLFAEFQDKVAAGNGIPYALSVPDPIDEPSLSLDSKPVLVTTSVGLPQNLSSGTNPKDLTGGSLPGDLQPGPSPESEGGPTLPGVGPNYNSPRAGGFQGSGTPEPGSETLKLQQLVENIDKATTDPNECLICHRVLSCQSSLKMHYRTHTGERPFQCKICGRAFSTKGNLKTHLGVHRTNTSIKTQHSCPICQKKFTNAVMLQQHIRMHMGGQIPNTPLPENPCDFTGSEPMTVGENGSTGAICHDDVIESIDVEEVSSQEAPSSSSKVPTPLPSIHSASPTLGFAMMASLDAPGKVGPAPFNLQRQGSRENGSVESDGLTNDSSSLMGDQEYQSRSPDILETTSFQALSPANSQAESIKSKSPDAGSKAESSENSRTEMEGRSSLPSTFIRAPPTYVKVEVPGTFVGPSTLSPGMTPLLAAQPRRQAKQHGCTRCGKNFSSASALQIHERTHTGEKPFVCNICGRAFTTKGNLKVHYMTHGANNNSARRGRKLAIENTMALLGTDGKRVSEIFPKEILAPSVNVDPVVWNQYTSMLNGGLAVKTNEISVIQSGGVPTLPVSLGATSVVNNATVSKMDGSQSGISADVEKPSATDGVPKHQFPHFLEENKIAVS
Method: universal PBM
Form: double-stranded DNA, one strand shown
Medium: in vitro
Tested at: 600 nM
Notes: 8-mer, flanks averaged, mean of replicates
Direction: higher = stronger binding
Endpoint: E-score
Strand = CAACTCTC; value = -0.119
Strand = AAGTGGAC; value = -0.0864
Strand = AGATAATG; value = 0.289
Strand = AGGTCATG; value = -0.088
Strand = GAAGAGAC; value = 0.0192
Strand = ATCGGTGG; value = -0.122
Strand = AACGGACC; value = -0.263
Strand = CACTTAGA; value = 0.103
Strand = ACCTTCAG; value = -0.0492
Strand = CGCGTAAC; value = -0.104
Strand = GCGAGATA; value = 0.116
Strand = CATTGTAC; value = 0.122
Strand = GCTCCGAA; value = -0.0323
Strand = GCCGAGCC; value = -0.186
Strand = GTGCATAA; value = 0.238
Strand = CACAGGCC; value = -0.12
Strand = AAAGATGG; value = 0.0751
